# Assay results pooled from the literature.
# Each numbered part is a random draw from the data of one study; scales do not carry over between parts. Substitutions count along the parent as printed.

# Set 1 — technique: DHFR PCA, deep sequencing; matrix: yeast; added: (+)-ABA 0 µM; relative to: wild-type fitted maximum; reading: higher = stronger binding
# Target: ABI1, truncated, D143A, DHFR fusion (Arabidopsis thaliana)
# Notes: methotrexate growth selection, single substitutions
# Parent: PYL1, truncated, DHFR fusion (Arabidopsis thaliana); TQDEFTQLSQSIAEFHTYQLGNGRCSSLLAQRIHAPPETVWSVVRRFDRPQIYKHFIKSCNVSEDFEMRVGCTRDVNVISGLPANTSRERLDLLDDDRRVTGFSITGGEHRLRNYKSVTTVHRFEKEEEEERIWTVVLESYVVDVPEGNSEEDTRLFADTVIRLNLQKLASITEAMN; partner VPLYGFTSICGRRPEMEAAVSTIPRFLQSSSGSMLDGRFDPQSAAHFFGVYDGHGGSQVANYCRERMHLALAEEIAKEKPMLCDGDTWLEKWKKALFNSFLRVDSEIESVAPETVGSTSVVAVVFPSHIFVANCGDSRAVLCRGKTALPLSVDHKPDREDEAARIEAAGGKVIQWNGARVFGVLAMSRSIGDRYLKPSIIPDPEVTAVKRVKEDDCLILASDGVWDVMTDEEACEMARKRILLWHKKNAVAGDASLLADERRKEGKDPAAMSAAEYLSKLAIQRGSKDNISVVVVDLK
Substitution,relative binding score
E89F,4.28%
R46G,0.0748%
D97C,4.47%
R99T,-0.427%
L93H,-1.39%
G107R,0.843%
V43K,-4.26%
C72P,-0.917%
Y53A,-1.57%
I33M,4.25%
K58V,-1.64%
A175M,20.8%
E89C,-2.67%
T17V,-0.118%
S11D,22.5%
R132T,36.5%
C60S,-0.187%
S27Q,-1.18%
S171K,28.9%
G23L,2.24%
S11L,3.11%
D65C,8.33%
G71V,2.41%
V142R,-2.02%

# Set 2 — target: CCNA1, cyclin fold, Cln2 fusion (human); technique: yeast growth competition, sequencing; matrix: yeast; notes: weak parent motif; relative to: not given; reading: higher = stronger binding
# Parent: SCAPER docking peptide (human); SNARRSLNFGGST
Substitution,normalised enrichment score
L7D,0.619
A3I,0.615
F9S,0.195
S12C,0.526
F9D,0.35
F9G,0.106
A3G,0.192
R5S,0.399
T13L,0.622
G11S,0.597
R5V,0.39
R5F,0.514
G11E,0.551
T13G,0.704
A3R,0.107
R5Y,0.265
G11W,0.527
S1E,0.159
S12E,0.959
G11N,0.489

# Set 3 — technique: protein-binding microarray; molecule type: double-stranded DNA, one strand shown; matrix: in vitro; concentration: 940 nM top; notes: 60-bp whole probe; added: salmon DNA 0.4 mg/ml; relative to: random background probes; reading: higher = stronger binding; shared flanks, not repeated: GCCTAGCAC … GTCTTGATTCGCTTGACGCTGCTG
# Target: Interferon regulatory factor 5, full length, phosphomimetic (IRF5, Homo sapiens, UniProt Q13568-2, residues 1-514, S451D/S453D/S456D/S462D)
Strand,fitted relative affinity [z-score]
GACGGGCTCGGTATCGGGACGTGCTAG,0.992
TCAATTTCCACTTTCTTACTGTGCTAG,1.96
GACGGTATCCTACTGCGGACGTGCTAG,-0.0492
TCACGTGTTTTTCTCCTACTGTGCTAG,1.33
TCAAGAATCCCCTTCTAACTGTGCTAG,0.372
GACCGTTCCCTTTTCCTGACGTGCTAG,1.18
GATGGTATCCTTTTCCTGACGTGCTAG,0.901
TTAGATCTCAGTCTCGTTTAGTGCTAG,2.04
TTAGGACGGCTTATCCTTTAGTGCTAG,-0.602
GACGGACTGGGTATCGGGAGGTGCTAG,0.726
GACGATTTCAGTTCTGAGACGTGCTAG,0.407
GACGTTATCGGTTTCGGGACGTGCTAG,4.22
GACGGTTTCGACATTGGGGACGTGCTA,7.45
GACGAACTGGTGACTGGAGACGTGCTA,-0.359
AGCCTTATCCCTAATCTCAGCGTGCTA,0.716
GACGGTTTCGACACTGGGGAGGTGCTA,6.71
TTAGATCTCAGCCTCGATTAGTGCTAG,0.0218
TATTTTTTCTGAACCATTTTGTGCTAG,0.824
TCAGTAAGCAAAAATGAACTGTGCTAG,-0.339
GACGGTTTCGGACTGGGGACGTGCTAG,5.88
GACGATATGAGACTGGAGACGTGCTAG,-0.488

# Other studies, line by line
Molecule,target,test,test system,conditions,scale,endpoint,result
"PhoQ, residues 284 288 289 292 302 303 SCCLKL","PhoP, residues 12 14 15 18 19 NQGLL (Escherichia coli, UniProt P23836)","Sort-seq, measured: YFP reporter",E. coli,"PhoQ-PhoP variant library, added: 10 µM Mg2+","relative to: high Mg2+ state, higher = stronger signaling",fold induction,5.08

# A few entries again (set 1):
Substitution,relative binding score
G23L,2.24%
S27Q,-1.18%
G71V,2.41%
S171K,28.9%
R99T,-0.427%
D97C,4.47%
Y53A,-1.57%
V43K,-4.26%
